Published values collected from several papers.
Lines come from different studies, so protocols differ.
WRKY60 full length assumed: WRKY60 full length assumed (Arabidopsis thaliana, UniProt Q9SK33)
Sequence of UniProt Q9SK33 (whole entry, looked up): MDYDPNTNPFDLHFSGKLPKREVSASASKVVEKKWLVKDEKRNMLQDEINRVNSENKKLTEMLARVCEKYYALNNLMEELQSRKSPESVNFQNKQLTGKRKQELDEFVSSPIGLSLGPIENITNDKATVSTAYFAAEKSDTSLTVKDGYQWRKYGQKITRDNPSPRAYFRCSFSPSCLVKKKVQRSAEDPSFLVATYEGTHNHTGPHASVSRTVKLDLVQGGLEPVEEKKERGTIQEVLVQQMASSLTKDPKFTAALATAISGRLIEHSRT
SART3: SART3 697-786 (Homo sapiens, UniProt Q15020)
Sequence of UniProt Q15020 (whole entry, looked up): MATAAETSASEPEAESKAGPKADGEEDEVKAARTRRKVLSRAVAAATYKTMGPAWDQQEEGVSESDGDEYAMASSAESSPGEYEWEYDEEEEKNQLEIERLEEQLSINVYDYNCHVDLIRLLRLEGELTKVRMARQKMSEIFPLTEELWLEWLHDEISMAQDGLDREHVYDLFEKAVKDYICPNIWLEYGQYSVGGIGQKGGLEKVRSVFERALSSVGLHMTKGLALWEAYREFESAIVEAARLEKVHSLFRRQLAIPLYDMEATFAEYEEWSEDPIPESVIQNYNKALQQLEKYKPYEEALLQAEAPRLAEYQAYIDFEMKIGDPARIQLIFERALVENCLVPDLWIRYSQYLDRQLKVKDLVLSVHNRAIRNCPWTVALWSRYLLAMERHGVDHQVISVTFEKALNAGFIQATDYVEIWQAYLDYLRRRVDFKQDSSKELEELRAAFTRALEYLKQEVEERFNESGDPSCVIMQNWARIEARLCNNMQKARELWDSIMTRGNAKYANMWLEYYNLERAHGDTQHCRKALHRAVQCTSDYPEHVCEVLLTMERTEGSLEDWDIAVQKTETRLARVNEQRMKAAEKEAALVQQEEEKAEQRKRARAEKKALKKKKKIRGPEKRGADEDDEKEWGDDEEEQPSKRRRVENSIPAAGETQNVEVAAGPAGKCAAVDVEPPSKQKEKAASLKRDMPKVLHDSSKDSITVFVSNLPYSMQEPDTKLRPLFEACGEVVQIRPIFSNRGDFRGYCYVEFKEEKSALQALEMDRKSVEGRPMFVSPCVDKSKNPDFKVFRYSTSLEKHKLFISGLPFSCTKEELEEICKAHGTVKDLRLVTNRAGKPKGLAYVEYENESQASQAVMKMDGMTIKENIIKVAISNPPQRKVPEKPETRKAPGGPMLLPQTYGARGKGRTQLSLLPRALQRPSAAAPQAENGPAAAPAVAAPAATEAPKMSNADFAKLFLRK
WT1: WT1 323-438 (Homo sapiens, UniProt P19544)
Sequence of UniProt P19544 (whole entry, looked up): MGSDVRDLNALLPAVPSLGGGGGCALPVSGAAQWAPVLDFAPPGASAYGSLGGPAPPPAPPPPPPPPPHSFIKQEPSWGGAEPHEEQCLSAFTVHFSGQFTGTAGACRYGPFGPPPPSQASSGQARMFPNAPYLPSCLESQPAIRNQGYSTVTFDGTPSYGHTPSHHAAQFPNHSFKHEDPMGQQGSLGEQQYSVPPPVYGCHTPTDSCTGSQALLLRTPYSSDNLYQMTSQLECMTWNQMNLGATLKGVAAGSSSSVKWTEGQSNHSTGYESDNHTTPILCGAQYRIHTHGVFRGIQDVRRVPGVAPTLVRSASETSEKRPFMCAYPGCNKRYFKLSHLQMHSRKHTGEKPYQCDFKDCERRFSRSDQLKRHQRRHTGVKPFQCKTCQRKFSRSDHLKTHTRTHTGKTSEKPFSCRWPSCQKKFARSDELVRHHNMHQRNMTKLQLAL
Sequence of UniProt Q43349 (whole entry, looked up): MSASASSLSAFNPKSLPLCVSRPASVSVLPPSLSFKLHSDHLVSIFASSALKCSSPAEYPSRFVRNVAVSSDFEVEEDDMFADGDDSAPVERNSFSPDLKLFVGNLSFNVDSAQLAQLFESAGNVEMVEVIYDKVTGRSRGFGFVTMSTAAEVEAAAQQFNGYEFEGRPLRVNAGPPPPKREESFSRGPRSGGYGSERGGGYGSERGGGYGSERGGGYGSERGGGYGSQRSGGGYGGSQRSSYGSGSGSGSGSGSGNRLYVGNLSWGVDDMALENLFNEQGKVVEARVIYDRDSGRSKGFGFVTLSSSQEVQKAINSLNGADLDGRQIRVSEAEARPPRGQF
Sequence of UniProt P05846 (whole entry, looked up): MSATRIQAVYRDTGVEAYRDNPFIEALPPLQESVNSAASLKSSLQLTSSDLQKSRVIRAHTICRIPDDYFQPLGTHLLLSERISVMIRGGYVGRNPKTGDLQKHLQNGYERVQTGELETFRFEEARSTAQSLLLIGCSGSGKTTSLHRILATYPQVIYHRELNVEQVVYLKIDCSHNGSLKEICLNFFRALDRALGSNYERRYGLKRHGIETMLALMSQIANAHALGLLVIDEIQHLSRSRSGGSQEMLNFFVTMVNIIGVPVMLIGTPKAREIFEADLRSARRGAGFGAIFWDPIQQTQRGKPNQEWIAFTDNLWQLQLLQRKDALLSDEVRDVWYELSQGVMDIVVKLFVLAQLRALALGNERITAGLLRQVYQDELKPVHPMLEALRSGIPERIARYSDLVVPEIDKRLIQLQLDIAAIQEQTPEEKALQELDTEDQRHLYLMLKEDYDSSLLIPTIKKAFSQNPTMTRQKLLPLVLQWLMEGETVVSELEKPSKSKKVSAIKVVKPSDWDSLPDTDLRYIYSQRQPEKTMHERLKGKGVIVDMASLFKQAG
Sequence of UniProt P38741 (whole entry, looked up): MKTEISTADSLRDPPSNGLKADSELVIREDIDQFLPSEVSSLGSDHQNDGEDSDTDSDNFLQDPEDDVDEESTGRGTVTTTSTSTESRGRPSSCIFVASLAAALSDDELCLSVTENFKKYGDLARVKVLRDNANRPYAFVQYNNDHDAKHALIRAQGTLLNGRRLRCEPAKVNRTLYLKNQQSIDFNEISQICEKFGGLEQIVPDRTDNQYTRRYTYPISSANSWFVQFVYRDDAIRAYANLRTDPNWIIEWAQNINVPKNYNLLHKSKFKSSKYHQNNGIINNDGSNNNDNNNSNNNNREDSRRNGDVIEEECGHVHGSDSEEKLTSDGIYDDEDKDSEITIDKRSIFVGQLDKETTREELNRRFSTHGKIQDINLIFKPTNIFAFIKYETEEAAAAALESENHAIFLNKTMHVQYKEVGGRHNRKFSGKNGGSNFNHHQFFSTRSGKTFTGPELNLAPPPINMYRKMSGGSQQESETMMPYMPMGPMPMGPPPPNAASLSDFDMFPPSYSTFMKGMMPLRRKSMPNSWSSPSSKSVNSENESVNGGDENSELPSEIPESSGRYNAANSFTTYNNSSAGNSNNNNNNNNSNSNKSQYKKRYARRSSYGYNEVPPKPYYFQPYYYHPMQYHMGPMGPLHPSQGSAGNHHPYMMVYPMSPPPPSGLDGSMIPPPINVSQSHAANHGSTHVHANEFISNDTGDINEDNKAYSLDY
Sequence of UniProt Q7XI96 (whole entry, looked up): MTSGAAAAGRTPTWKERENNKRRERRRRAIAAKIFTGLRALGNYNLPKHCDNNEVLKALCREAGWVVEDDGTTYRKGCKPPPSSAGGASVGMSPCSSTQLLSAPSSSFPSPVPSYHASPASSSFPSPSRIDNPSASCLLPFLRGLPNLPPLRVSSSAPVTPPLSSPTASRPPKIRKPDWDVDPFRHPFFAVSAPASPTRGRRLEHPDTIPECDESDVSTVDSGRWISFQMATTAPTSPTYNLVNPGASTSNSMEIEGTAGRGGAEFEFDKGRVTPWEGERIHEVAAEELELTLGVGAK
Sequence of UniProt Q9FNN6 (whole entry, looked up): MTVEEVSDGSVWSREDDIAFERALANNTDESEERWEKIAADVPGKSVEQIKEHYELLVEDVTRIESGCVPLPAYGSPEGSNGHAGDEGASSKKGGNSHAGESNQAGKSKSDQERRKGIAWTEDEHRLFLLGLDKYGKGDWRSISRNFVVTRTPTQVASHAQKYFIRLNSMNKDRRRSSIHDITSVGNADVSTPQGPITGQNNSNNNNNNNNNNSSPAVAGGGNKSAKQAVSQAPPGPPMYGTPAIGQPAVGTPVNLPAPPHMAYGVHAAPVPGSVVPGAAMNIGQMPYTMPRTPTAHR
Sequence of UniProt P19821 (whole entry, unmodified, looked up): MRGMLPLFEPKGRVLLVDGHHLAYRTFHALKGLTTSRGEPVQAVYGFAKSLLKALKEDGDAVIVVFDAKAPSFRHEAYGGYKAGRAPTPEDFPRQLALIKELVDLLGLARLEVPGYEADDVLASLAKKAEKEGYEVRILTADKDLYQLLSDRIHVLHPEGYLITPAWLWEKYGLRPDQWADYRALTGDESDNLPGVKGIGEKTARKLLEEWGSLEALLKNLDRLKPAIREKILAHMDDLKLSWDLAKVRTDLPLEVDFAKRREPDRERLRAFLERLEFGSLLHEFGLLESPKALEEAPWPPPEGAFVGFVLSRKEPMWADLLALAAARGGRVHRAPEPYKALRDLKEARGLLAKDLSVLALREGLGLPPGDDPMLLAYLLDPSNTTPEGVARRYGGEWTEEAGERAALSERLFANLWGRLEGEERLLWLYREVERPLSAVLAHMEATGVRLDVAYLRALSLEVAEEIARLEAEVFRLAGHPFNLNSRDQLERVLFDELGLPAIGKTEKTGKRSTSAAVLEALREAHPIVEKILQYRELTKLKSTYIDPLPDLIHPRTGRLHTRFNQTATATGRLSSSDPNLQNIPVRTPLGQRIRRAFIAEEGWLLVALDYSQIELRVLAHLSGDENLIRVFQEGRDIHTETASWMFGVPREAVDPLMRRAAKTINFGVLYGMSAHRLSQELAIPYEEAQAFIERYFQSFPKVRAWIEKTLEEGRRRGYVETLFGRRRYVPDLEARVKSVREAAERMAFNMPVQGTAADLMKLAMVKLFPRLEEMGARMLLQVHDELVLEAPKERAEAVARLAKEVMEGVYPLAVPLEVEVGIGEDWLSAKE
Sequence of UniProt Q0JHF1 (whole entry, looked up): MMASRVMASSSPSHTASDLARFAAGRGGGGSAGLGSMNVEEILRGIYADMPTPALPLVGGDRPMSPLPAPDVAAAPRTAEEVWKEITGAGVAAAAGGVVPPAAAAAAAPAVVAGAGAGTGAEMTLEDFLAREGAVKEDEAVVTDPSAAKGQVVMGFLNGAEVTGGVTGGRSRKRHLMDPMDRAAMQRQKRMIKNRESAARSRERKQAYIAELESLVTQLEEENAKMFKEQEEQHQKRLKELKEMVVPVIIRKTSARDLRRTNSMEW

`TTTTTTTTTTTTTTTTTTTTTTTTTTTTTTTTTTTTTTTTTTTTTTTTTTTTTTTTTTTTTTTTT (ssDNA)`: binding “binds” (yoaA/holC 1-636; 1-147 (Escherichia coli); EMSA; single-stranded DNA; added: ATPγS).
For `TGTATTGCACATCGTGTAATATCGCGGTATAGTATTACACACCATGTAATACAGAGATGGC (dsDNA)`, binding read “no binding” (higB 1-92 (Proteus vulgaris, UniProt Q7A225); EMSA; double-stranded DNA, one strand shown).
`TGTTTT (ssDNA)`: binding “binds” (CP29A 97-176 (Arabidopsis thaliana, UniProt Q43349); NMR titration; single-stranded DNA).
Under binding, `TGTATATATAAAGAAGGGAGCTGGCTCTAGAGGTAAGCCAT (dsDNA)` is recorded as “binds” (BZIP domain-containing protein full length assumed (Triticum aestivum, UniProt A0A3B6EMK6); EMSA; double-stranded DNA, one strand shown).
`AGACTTTCTGTCATTGGA (dsDNA)` — result for binding: “binds” (Auxin response factor 1-610 (Capsicum annuum, UniProt A0A1U8F1G4); MST; double-stranded DNA, one strand shown).
`CAGCTTTTCAATGGCTTTCCAATACGACCCGCAGGGGAAAAACCGTTAAACCGTCCACATTAACCGCTGACCCAAAAAAGAACGCTTTTTACTAAAAGATTTCTATTCGGTTCTCAAATGTTGCTTGAATGGGGCAACAATAAAACGTCGTGGCATTTAACCTAGTTTGGAAATTCAGACCCTATTGAATTTCGC (dsDNA)` — result for binding: “no binding” (ihfA/ihfB 1-98; 1-95 (Aggregatibacter actinomycetemcomitans); EMSA; double-stranded DNA, one strand shown).
`AUACUCUGGUUUCUCUUCAGAUCGCAUAAAUCUUUCGCCUUUUACUAAAGUUUCCGUGGAGAGGAACAACUCUGAGUCUUAACCCAAUUUUUUGAGGCCUUGCUUUGGCAAGGCUA (structured RNA)`: binding “binds” (ECD 1-644 (Homo sapiens, UniProt O95905); EMSA; folded RNA).
`AATTACTTAGAACTCTCACATTTAACCACGTCATGATCATATCAACGGTGTTATCCAT (dsDNA)`: binding “binds” (BZIP12 full length assumed (Oryza sativa, UniProt Q0JHF1); EMSA; double-stranded DNA, one strand shown).
`AGCGTAGCACTGGGCT (dsDNA)` — result for binding: “no binding” (protein full length assumed (Bacillus pumilus, UniProt A3FMN7); EMSA; double-stranded DNA, one strand shown).
For `UUUUAGCUGCUUGCUUAGAAGAAAAGAAAAGAAAAUUGCAGAGAAAAAGCUAUUUAUUGUUUCUGUCCUUCGCUUUAAAACAUAGAGAUAUUUUGUCCUUUUUAUCAUUGCUUAUUAUAA (ssRNA)`, binding read “binds” (RIM4 1-713 (Saccharomyces cerevisiae, UniProt P38741); EMSA; RNA).
Under binding, `AGTTATATGCGTTTGATCATTTGTCAAAATTTAGTGAAACTTTAAAAT (dsDNA)` is recorded as “binds” (NLP3 1-938 (Oryza sativa, UniProt Q5NB82); EMSA; double-stranded DNA, one strand shown).
`ATGTCACTGGAATATTCGCGCACCGT (dsDNA)` — result for binding: “binds” (HSFA4D 1-459 (Oryza sativa, UniProt Q93VB5); EMSA; double-stranded DNA, one strand shown).
`DNA 1 GCTTGACCAATGCGGTCGC / DNA 2 GCGACCGCATTGGTCAAG (dsDNA; 5' 1-nt overhang)` — result for binding: “binds” (BCL11A 730-835 (Homo sapiens, UniProt Q9H165); X-ray crystallography; double-stranded DNA; added: Zn2+).
For `ACAAGAACAUCAAAGUCGAAGAACCUUCCG (ssRNA)`, binding read “binds” (IGF2BP1 1-577 (Homo sapiens, UniProt Q9NZI8); pull-down; RNA).
Under binding, `DNA 1 GTCCCTAGCGG / DNA 2 CGGGAACCGCCGCTAGGGAC (dsDNA; 11 bp duplex, 5' overhang, recessed primer)` is recorded as “binds” (polA 293-832 K505G/E507G (Thermus aquaticus, UniProt P19821); fluorescence polarization; double-stranded DNA).
`GGGTTGCGGCCGCTTGGG (dsDNA)` — result for binding: “binds” (PARP1 del BRCT domain (Homo sapiens, UniProt P09874); stopped-flow fluorescence anisotropy; double-stranded DNA, one strand shown).
Under binding, `GCAGTGAAAAGGGGGTGTGTCAGGATGC (dsDNA)` is recorded as “no binding” (KLF10 111-210 (Homo sapiens, UniProt Q13118); EMSA; double-stranded DNA, one strand shown).
For `GGTTAGGGTTAG (ssDNA; 5'-phosphate)`, binding read “binds” (Pot1b 1-300 (Mus musculus, UniProt H7BX60); EMSA; single-stranded DNA).
Under binding, `DNA 1 ACACTACAATGTTGCAAT / DNA 2 GTATTGCAACATTGTAGT (dsDNA (Drosophila melanogaster); 16 bp, 5' 2 nt overhangs)` is recorded as “binds” (SRY 60-128 (Homo sapiens, UniProt Q05066); EMSA; double-stranded DNA).
For `AAGACTTGGAATATAATAATTATTCATTTAAA (dsDNA)`, binding read “binds” (hb-1 full length assumed (Solanum lycopersicum, UniProt B6GVA3); EMSA; double-stranded DNA, one strand shown).
`DNA 1 ATTCTTAAGAAAGACG / DNA 2 TCGTCTTTCTTAAGAA (dsDNA; 5' one-nucleotide overhang)`: binding “binds” (CEBPB 257-336 (Homo sapiens, UniProt P17676); X-ray crystallography; double-stranded DNA).
`GACAAAAGATGTTGACCTTCACGCCTCTCTTCTTAGACCCCACGCGCCACACTCTCACGGTGAGAACATAAATATCAATCTCTCTTTTACCGCCTCCTACCCATTTATCTCTCTCTTTCTCAAAACCTTTCAGTCAAAATTCTCC (dsDNA)` — result for binding: “no binding” (WRKY60 full length assumed; EMSA; double-stranded DNA, one strand shown).
`DNA 1 ACGCTCCGTCGAGGAATTCGGATCCGAATTCCTCGAC / DNA 2 ACGCTCCGTCGAGGAATTCGGATCCGAATTCCTCGAC (dsDNA; 5' 7-nt overhangs, palindromic)` — result for binding: “no binding” (sduA 1-380 (Bacillus cereus, UniProt B7HFR2); fluorescence polarization; double-stranded DNA; added: Mg2+ 5 mM).
`CGGGAACUCGCGUAGACACGCCCG (structured RNA)`: binding “binds” (NFKB1 41-249 (Homo sapiens, UniProt P19838); NMR; folded RNA; NaCl 50 mM).
`GGAATTGGTCAGTGCTAATCCTTGGTCAGTGCAGCTA (dsDNA)` — result for binding: “binds” (him-8 full length assumed (Caenorhabditis elegans, UniProt O18068); competition pull-down; double-stranded DNA, one strand shown).
Under binding, `AAGAU (ssRNA)` is recorded as “no binding” (SART3; ITC; RNA).
`CAGCCAACTAAACTA (dsDNA)` — result for binding: “no binding” (tnsC 1-503 (Escherichia coli, UniProt P05846); EMSA; double-stranded DNA, one strand shown; added: ATP 0.33 mM).
`ACCAAGCGGGAAGCGGAGCCGCCGCCGCCGCCG (dsDNA; blunt)` — result for binding: “no binding” (WT1; EMSA; double-stranded DNA, one strand shown).
`AGACTTCTCAAGACCGAACGTGCGCGCAGATTTGTCGTACGTATAGTACT (dsDNA)`: binding “binds” (Beta-amylase 1-651 (Zea mays, UniProt A0A2D0ZCW9); EMSA; double-stranded DNA, one strand shown).
`TCAGTTGGCAGGTTGGCAGTAATTTTGACGAAATTCGTTGCAGAATGATA (dsDNA)` — result for binding: “binds” (WRKY23 (Oryza sativa, UniProt Q7E0X1); EMSA; double-stranded DNA, one strand shown).
`CGGAAAGTCCAAGGCAACATGTATCTTAATATCTTGTCTT (dsDNA)` — result for binding: “no binding” (EIL1A 1-350 (Oryza sativa, UniProt Q10M41); EMSA; double-stranded DNA, one strand shown).
`TAAGAGAATATTTGAAAATTGTCTATGTAGATGAACATGTATTTGAAAATTGCGTAA (dsDNA)`: binding “binds” (EIN3 1-628 (Arabidopsis thaliana, UniProt O24606); EMSA; double-stranded DNA, one strand shown).
`CTGAAGTTTGGTCAAAATAATACGATGAATTTAATATATAAGAGACAAAATTGTTATTGTCGTTTAGGTGGTATCCATATTTCAATATAGTTTGTGTGAATACAGATATAAAAATGGTTATTGTTGTGTATATGATGCAGTTG (dsDNA)` — result for binding: “binds” (WRKY60 full length assumed; EMSA; double-stranded DNA, one strand shown).
`AAAATAATTTTACTTTTTAAGTTTGTTAG (dsDNA)`: binding “binds” (NAC2 1-315 (Actinidia chinensis, UniProt A0A075EAR8); EMSA; double-stranded DNA, one strand shown).
For `AUACA (ssRNA)`, binding read “no binding” (SART3; ITC; RNA).
For `GCAGCCCTGGTTAAAAACAAGGTTTATAAATATTGGTTTAAAAGCAGGTTAAAAGACAGGTTAGCGGTGG (ssDNA; 5-Br-dU at T24)`, binding read “binds” (trfA 98-382 G254D/S267L (Escherichia coli, UniProt P07676); EMSA; single-stranded DNA).
`TATGAGTAAAATAAAAATGGATGGTAATT (dsDNA)`: binding “no binding” (Uncharacterized protein 1-360 (Prunus persica, UniProt M5W9R3); competition; double-stranded DNA, one strand shown; added: cold mutant probe).
For `ACCAAGCGGGATGCGGAGCCGCCGCCGCCGCTG (dsDNA; blunt)`, binding read “no binding” (WT1; EMSA; double-stranded DNA, one strand shown).
For `CTTATTTCTTCTTCAACACGGTTTAA (dsDNA)`, binding read “no binding” (SRM1 1-298 (Arabidopsis thaliana, UniProt Q9FNN6); EMSA; double-stranded DNA, one strand shown).
Under binding, `TCGGTACCCGTGGATC (dsDNA)` is recorded as “binds” (protein full length assumed K369A (Bacillus pumilus, UniProt A3FMN7); EMSA; double-stranded DNA, one strand shown).
`GGTCCAGCTGAAGCCATCTAGTCAACGCTTACATTTACACTTGT (dsDNA)` — result for binding: “binds” (WRKY domain-containing protein 1-700 (Vitis vinifera, UniProt A0ABY9BSD8); EMSA; double-stranded DNA, one strand shown).
`ACCAAGCGGGATTCGGAGCCGCCGCCGCCGCCG (dsDNA; blunt)` — result for binding: “no binding” (WT1; EMSA; double-stranded DNA, one strand shown).
`GTTACT (ssDNA)`: binding “binds” (CP29A 255-334 (Arabidopsis thaliana, UniProt Q43349); NMR titration; single-stranded DNA).
`ACAGGGGTGTGGGGACAGGGGTGTGGGG (G-quadruplex DNA (Homo sapiens); intramolecular G4)` — result for binding: “no binding” (IGF1 49-118 (Homo sapiens, UniProt P05019); SPR; folded DNA).
`AGGATCAGCCATTTGGCACACCAAGTGGTCCAAATGATGATTTAGG (dsDNA)`: binding “binds” (BZR1 1-298 (Oryza sativa, UniProt Q7XI96); EMSA; double-stranded DNA, one strand shown).
For `DNA 1 GCAGCCAACTAAACTA / DNA 2 TAGTTTAGTTGGCTG (dsDNA; 5' 1-nt overhang)`, binding read “binds” (TnsC 1-503 (Escherichia coli, UniProt P05846); EMSA; double-stranded DNA; added: ATP).
For `CGTTTGTCGCTGTCACGATGTGGACCGTTCTTCTTTATTTTCACGTGGACCGACTTAATTACCTTCTTTCATTCTTGTTATTTCAATATTTTTTACGTCATTTAAACTCCACTTTACCAAAATAATTTATTTCATTCTTTGAGAGCATCAATTATCAAATAATTCAATTGTCTTTTTTCGTGATAGTTGAATAAGGGAC (dsDNA)`, binding read “binds” (WRKY40 full length assumed (Arabidopsis thaliana, UniProt Q9SAH7); EMSA; double-stranded DNA, one strand shown).

For quick reference, copied from above:
`AAAATAATTTTACTTTTTAAGTTTGTTAG (dsDNA)`: binding “binds” (NAC2 1-315 (Actinidia chinensis, UniProt A0A075EAR8); EMSA; double-stranded DNA, one strand shown).
For `AUACA (ssRNA)`, binding read “no binding” (SART3; ITC; RNA).
For `GCAGCCCTGGTTAAAAACAAGGTTTATAAATATTGGTTTAAAAGCAGGTTAAAAGACAGGTTAGCGGTGG (ssDNA; 5-Br-dU at T24)`, binding read “binds” (trfA 98-382 G254D/S267L (Escherichia coli, UniProt P07676); EMSA; single-stranded DNA).
`TATGAGTAAAATAAAAATGGATGGTAATT (dsDNA)`: binding “no binding” (Uncharacterized protein 1-360 (Prunus persica, UniProt M5W9R3); competition; double-stranded DNA, one strand shown; added: cold mutant probe).
For `ACCAAGCGGGATGCGGAGCCGCCGCCGCCGCTG (dsDNA; blunt)`, binding read “no binding” (WT1; EMSA; double-stranded DNA, one strand shown).
For `CTTATTTCTTCTTCAACACGGTTTAA (dsDNA)`, binding read “no binding” (SRM1 1-298 (Arabidopsis thaliana, UniProt Q9FNN6); EMSA; double-stranded DNA, one strand shown).
Under binding, `TCGGTACCCGTGGATC (dsDNA)` is recorded as “binds” (protein full length assumed K369A (Bacillus pumilus, UniProt A3FMN7); EMSA; double-stranded DNA, one strand shown).
